Measured values pooled from the literature.
Numbered parts are unrelated; each lists some results of a single study. Changes are numbered by the printed parent chain.

Sample 1
Target: CCNE1, cyclin fold, Cln2 fusion (human)
Method: yeast growth competition, sequencing
Sample: yeast
Notes: strong parent motif
Relative to: not given
Direction: higher = stronger binding
Endpoint: normalised enrichment score
Parent: BRCA2 docking peptide (human); PSIKRNLLNEFDR; partner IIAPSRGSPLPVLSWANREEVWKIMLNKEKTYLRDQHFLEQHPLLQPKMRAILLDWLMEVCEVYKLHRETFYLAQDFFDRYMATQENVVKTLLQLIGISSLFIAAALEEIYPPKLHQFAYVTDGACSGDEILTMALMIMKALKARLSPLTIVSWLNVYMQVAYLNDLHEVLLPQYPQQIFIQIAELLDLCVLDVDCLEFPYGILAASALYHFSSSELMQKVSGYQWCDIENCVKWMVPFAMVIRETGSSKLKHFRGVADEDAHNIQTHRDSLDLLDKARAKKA
N6A: -0.205
L7S: -0.34
L7V: -0.188
F11K: 0.209
P1Y: 1.64
S2I: 1.51
D12S: 1.26
L8T: 0.604
D12A: 1.69
N9M: 1.17
L7G: -0.0172

Sample 2
Target: Centromere-binding protein 1, full length, His-tagged (CBF1, Saccharomyces cerevisiae, UniProt P17106, residues 1-351)
Chain of UniProt P17106 (whole entry, looked up): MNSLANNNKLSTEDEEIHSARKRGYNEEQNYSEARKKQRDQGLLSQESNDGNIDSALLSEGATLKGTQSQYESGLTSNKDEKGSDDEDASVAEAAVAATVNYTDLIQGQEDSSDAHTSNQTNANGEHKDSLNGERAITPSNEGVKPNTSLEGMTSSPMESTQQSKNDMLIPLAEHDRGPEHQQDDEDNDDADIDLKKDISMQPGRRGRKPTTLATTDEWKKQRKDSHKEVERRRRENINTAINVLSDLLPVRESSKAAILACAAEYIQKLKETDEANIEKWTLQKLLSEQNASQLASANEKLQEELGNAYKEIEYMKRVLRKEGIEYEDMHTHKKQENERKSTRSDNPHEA
Method: competition protein-binding microarray
Molecule type: double-stranded DNA, one strand shown
Sample: in vitro
Concentration: 2 µM
Notes: whole 60-bp probe, lowest competitor level
With: Pho4 competitor, 0.05 µM
Direction: higher = stronger binding
Endpoint: fluorescence intensity
All sequences stand within: … GTCTTGATTCGCTTGACGCTGCTG
AGGATTTTCAACCATCATGTGACAGTCGAAGAACGC: 1190 a.u.
GAACCATTGTCTTTGCACGTTGACACCTATGGTACT: 121 a.u.
TCGGTGCGATTATTCTTCGTGCTTTAACAAGATGAG: 84.3 a.u.
AAGAAGTACGACCGACACGTTAGTATGCCTTTGTTG: 63.7 a.u.
AAACATGGGAGTGGCATCTCATAATGTTGCTGCTCC: 73.7 a.u.
ATATAGTAAATAAAACACGTGATGGATTTGAAATGT: 6800 a.u.
TCTGTGATACAGCGTCACATGACAATTTAAAAGTGT: 2460 a.u.
ACTCTGCAATTCTATCAGTAGGTGGTGCAACCGCGT: 73.6 a.u.
TTATCTAGCTCTGCCCACATGTGTGTTAACGAAGCA: 109 a.u.
CAGTATTTATCAGTTCTCGAGCAAGCAGAGAAAAGT: 71.4 a.u.
CTTTCCCGATCTTGGTCTGTGGGTGTAGCACATTTG: 78.8 a.u.
AGCCCGCTTCCCGACCACGTGGAGGAACCCTCCCCA: 767 a.u.
TGTAAATAACCGTGGAAGAATTTGTATTATCATCGT: 97.6 a.u.
CTTTCCCGATCTTTTCACGTGGTGTTAGCACATTTG: 1240 a.u.
AACTAGATGTTGTCTATCGTGATGGGAAACCAGAGA: 89.7 a.u.
TACTTCCGTCGTTTGCACGTTGGCCAGAATGTCTCT: 89 a.u.

Sample 3
Target: Sal-like protein 4, full length isoform A (SALL4, Homo sapiens, UniProt Q9UJQ4, residues 1-1053)
Chain of UniProt Q9UJQ4 (whole entry, looked up): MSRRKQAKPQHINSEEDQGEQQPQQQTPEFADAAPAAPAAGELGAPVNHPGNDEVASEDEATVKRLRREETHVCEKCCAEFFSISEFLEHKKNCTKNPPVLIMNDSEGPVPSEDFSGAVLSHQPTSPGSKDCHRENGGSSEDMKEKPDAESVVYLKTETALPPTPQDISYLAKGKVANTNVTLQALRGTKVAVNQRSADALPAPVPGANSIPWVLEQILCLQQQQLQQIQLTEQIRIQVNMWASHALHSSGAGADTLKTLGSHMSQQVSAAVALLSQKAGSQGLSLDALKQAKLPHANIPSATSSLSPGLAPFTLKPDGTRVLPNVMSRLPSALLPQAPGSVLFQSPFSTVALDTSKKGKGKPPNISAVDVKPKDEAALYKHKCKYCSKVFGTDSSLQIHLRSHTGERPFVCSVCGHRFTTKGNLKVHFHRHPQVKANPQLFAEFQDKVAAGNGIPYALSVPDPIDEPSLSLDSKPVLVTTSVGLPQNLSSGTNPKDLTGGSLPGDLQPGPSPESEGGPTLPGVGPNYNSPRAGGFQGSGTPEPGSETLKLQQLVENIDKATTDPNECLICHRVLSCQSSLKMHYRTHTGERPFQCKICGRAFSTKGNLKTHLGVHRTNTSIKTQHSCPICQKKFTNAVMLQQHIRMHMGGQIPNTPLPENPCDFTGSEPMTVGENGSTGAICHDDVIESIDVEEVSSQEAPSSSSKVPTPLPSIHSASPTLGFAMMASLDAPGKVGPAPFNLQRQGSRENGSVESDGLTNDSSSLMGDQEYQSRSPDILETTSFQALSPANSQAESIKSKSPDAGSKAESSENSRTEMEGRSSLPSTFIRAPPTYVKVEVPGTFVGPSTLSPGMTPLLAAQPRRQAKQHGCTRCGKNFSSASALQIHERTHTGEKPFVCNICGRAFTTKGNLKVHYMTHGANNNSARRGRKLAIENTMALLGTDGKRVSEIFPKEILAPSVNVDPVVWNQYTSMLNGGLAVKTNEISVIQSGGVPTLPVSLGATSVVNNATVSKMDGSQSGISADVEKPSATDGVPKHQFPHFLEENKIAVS
Method: universal PBM
Molecule type: double-stranded DNA, one strand shown
Sample: in vitro
Concentration: 600 nM
Notes: 8-mer, flanks averaged, mean of replicates
Direction: higher = stronger binding
Endpoint: E-score
AATTAGAG: 0.131
TATTAACA: 0.343
AAAGTTAT: 0.325
CGGAAGAG: -0.202
AACACCCC: -0.114
AGGCTATG: -0.0856
CTTTCTAC: 0.0222
CACAGTCC: -0.194
AGGAATAC: 0.169
GCCGGACC: -0.384
GCAAGTTA: 0.0201
AACGCTCC: -0.0583
CATCATGC: 0.0899
AAGGAAGC: -0.182

Sample 4
Target: RING finger protein unkempt homolog, zinc fingers 1-6, GST-SBP tag (UNK, Homo sapiens, UniProt Q9C0B0, residues 30-357)
Method: RNA Bind-n-Seq
Molecule type: RNA
Sample: in vitro
Concentration: not given
Notes: RNA with constant flanks, ends assumed
Relative to: input RNA pool
Direction: higher = stronger binding
Endpoint: bound/input enrichment
All sequences stand within: GGGAGUUCUACAGUCCGACGAUC … CAACAGAGGAUUGAGCAUCA
Construct (chain): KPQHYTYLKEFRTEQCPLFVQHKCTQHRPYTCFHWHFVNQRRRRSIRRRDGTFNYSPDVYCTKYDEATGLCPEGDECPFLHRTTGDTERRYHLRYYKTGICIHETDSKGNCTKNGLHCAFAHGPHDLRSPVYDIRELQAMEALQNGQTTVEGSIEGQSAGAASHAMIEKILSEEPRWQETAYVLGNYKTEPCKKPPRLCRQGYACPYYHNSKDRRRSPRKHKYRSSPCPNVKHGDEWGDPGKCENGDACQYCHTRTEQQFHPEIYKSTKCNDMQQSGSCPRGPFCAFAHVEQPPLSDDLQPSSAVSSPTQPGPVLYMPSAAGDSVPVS
GGUGGGACAGAAAAGACAUUGCAGUAUGAAGGAAGGCUUUGGUUUGCUCAAAGUGCCAGGUGCCGGGAUGAACCUCUGACGGGCUUUCUGCCCAAGAGAUGAGAUGAGAGCCUCCUCACC: 0.261 ratio
CGAUGUCCAGUCACUGUGUGUGGAGAUGUACAUGGGCAAUUUCAUGAUCUCAUGGAACUCUUCCGAAUUGGUGGUAAAUCACCAGAUACAAAUUACCUGUUUAUGGGAGACUAUGUGGAC: 0.148 ratio
GUUGGAUUUCAUUUCCCCAGGUCUUCAGUGUUGAUGUAAAUGUGUUUUGUAGUGUUGCUCCGCACUUUGCGCAUUGUGUAAGUUGGGUAACAAAAAUGGCAAAAGAAAUGCAGAUUUCCC: 0.255 ratio
GAUUCACUCCCUCUGGUUGAUACCCACUCAAAAAGGACACUUCUGAUUAAGACGGUUGAAACCCGAGAUGGACAGGUUAUCAACGAAACUUCUCAGCAUCACGAUGACCUUGAAUAAAAA: 0.145 ratio
AGACCUUUGGGGACAACUAAAGCUGCGGGAUACAAAGUCAGCCCAGGCAGACCUCCAGGCCGCAUUAAAGCUCUAUCCCGUCUUGCCGAUCUUGGUUAUGGCUGUGGCACUGCUGCUUUU: 0.0594 ratio
GCUUUAAGUCUUUUGGGGAGCCAUAAGCCCUUGAUUCUACAGCAUGAGAACCUGGAAACCACCGUGGACUUCAUAAAGAACACACUCCCCAACCUGGGCCUGGUGCAGAUGGAGAAGACC: 0.24 ratio
UUUCUCUUCCACAUGAAAGUAGUAGUUCAGAUGCAAGCUAAGCUGUUUAAUAAGAUUGUUUUCCGUUUAUGUAAAUACUUGUAAAUUGGUCAGUACCUGUAUUGUACAUUUAAAUAUAAA: 0.751 ratio

Sample 5
Target: ABI1, truncated, D143A, DHFR fusion (Arabidopsis thaliana)
Method: DHFR PCA, deep sequencing
Sample: yeast
Notes: methotrexate growth selection, single substitutions
With: (+)-ABA 0.032 µM
Relative to: wild-type fitted maximum
Direction: higher = stronger binding
Endpoint: relative binding score
Parent: PYL1, truncated, DHFR fusion (Arabidopsis thaliana); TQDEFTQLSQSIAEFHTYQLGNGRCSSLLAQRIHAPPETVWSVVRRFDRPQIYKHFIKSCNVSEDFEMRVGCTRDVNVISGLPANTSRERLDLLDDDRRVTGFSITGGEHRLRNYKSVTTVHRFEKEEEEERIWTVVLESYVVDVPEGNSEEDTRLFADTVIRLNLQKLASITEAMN; partner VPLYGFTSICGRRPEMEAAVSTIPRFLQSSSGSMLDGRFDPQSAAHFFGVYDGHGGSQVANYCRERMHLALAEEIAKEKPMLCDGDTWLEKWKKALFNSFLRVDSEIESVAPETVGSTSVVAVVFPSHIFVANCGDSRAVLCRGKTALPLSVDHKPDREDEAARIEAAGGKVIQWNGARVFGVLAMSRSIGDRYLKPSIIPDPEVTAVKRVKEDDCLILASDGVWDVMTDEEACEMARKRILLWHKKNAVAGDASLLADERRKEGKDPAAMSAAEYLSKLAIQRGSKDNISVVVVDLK
T17M: 7.14%
N177V: 37.4%
S171T: 36.6%
S117W: -5.26%
D153F: -14.9%
A175G: 25.2%
L94G: -2.11%
N165C: 4.01%
E174Q: 0.779%
K58Q: 9.09%
H16Q: 3.62%
N177D: 21.1%
V121W: -3.63%

Sample 6
Target: Histone acetyltransferase KAT6A, winged helix 1, GST fusion (KAT6A, Homo sapiens, UniProt Q92794, residues 1-85)
Method: protein binding microarray
Molecule type: double-stranded DNA, one strand shown
Sample: in vitro
Concentration: not given
Notes: 8-mer, flanks averaged, mean of 2 arrays, mostly near background
Relative to: not given
Direction: higher = stronger binding
Endpoint: E-score
Residues (chain): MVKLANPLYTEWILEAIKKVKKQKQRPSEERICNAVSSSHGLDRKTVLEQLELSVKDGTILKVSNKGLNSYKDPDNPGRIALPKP
AAAGGCCC: 0.11
CTAATTAC: -0.0882
GCGCCGGA: 0.413
ATATAATG: -0.151
TCACTCCA: -0.241
CACAAGCC: -0.00806
CTATGGTA: -0.101
CTCCACTC: -0.17
ATCCGCGA: 0.268
GAACTGCA: -0.124
AGCCAAAG: -0.143
GGCTCTGA: -0.24
CTGGGTGA: -0.136
CCTCTCAA: -0.17
AAACCGCC: 0.221
ATTATAAT: -0.0929
CTGCCAGC: -0.13
AAGTGAAC: -0.214
AGTCTCTC: -0.0941
GTACTTAA: -0.0839

Sample 7
Target: RNA binding protein fox-1 homolog 2, RRM domain, GST-SBP tag (RBFOX2, Homo sapiens, UniProt O43251-10, residues 100-194)
Method: RNA Bind-n-Seq
Molecule type: RNA
Sample: in vitro
Concentration: 365 nM
Notes: natural RNA segment, single round, ends assumed
Relative to: no-protein control
Direction: higher = stronger binding
Endpoint: RBNS enrichment (R)
All sequences stand within: GGGAGUUCUACAGUCCGACGAUC … UGGAAUUCUCGGGUGCCAA
Construct (chain): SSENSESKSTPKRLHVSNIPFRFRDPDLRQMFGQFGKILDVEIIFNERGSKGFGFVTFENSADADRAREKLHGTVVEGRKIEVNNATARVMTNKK
UGAACUCUUAAUCCUCCGCCUUGGCCCUCUAAGGGCUGCUAGUCCGAGUGUGGACAACCACACCUGGCUCUGGCGUCUGGCGGUCACUUGACGCUCAUCUGCGUCUCCGU: 0.132
GUGACAUAGACAUUUCUCAAAAGGGUCUGAUACAUCAAACUCCUAACAAGUAGGAGCAGCAACUAGCUAAAGAGUAGAAAGAAGCUUCCCUUAUUGUGGGUGAUGAGGCG: 0.434
CUCUUGAGGCUGGCAGCCCUCCUGCAAUGAGUUGCUCUCAGUUCCUUCUGUUUGGAUUUUGCUCAACAUCUCCAGUUUCUCUGCUCUGAAAAAUGGGGAAAACUGCUAAA: 0.355
UCCCACCCAGGGACCCCACCCUGGCCCAGUCCUCAGGUGGAUGACUGACGCACGGCAGGAGAUUUUUGUUUUUGUUUUCCUGUAUAUGAAAUGUUUUUCAAACCAUCCUC: 1.14
AUGGCUCCUUCUUCAGAAUAGGUGCAGACCCCUCCCCGUGCCCGUUCCCUGCCACCCGGGGUAAGGAGGUGGCACUACCAGUCUGUCUAACCCACUCACUGGCUUUGACC: 0.376
GGCCGGGGGCCCCCCGAUGCCUUGGCAGUGCCAGCCACGGGAACCAGGAGCGAGAGACGGUGCCAGAACGCCGGGGCCCGGGGCAACUCCGAGUGGGUGCUCAAGUCCCC: 0.306
GAGCCAUCUCUCCAGCCCCCUAGACCCCCUUUCUUAUCACUCACACAGACACACUGUGUCUUGUGUCUUGUGAGUCCAGCACCUGGUCCCACCCUCAGUCCCCAUGUUAG: 0.522

For quick reference, copied from above (sample 5):
N165C: 4.01%
E174Q: 0.779%
N177D: 21.1%
K58Q: 9.09%
H16Q: 3.62%
N177V: 37.4%
L94G: -2.11%
